Measured values pooled from the literature.
Each numbered part is a random draw from the data of one study; scales do not carry over between parts. Positions count from the first letter of the parent shown.

Set 1 — method: universal PBM; form: double-stranded DNA, one strand shown; matrix: in vitro; concentration: 600 nM; reading: higher = stronger binding
Target: Sal-like protein 4, full length isoform A (SALL4, Homo sapiens, UniProt Q9UJQ4, residues 1-1053)
Sequence of UniProt Q9UJQ4 (whole entry, looked up): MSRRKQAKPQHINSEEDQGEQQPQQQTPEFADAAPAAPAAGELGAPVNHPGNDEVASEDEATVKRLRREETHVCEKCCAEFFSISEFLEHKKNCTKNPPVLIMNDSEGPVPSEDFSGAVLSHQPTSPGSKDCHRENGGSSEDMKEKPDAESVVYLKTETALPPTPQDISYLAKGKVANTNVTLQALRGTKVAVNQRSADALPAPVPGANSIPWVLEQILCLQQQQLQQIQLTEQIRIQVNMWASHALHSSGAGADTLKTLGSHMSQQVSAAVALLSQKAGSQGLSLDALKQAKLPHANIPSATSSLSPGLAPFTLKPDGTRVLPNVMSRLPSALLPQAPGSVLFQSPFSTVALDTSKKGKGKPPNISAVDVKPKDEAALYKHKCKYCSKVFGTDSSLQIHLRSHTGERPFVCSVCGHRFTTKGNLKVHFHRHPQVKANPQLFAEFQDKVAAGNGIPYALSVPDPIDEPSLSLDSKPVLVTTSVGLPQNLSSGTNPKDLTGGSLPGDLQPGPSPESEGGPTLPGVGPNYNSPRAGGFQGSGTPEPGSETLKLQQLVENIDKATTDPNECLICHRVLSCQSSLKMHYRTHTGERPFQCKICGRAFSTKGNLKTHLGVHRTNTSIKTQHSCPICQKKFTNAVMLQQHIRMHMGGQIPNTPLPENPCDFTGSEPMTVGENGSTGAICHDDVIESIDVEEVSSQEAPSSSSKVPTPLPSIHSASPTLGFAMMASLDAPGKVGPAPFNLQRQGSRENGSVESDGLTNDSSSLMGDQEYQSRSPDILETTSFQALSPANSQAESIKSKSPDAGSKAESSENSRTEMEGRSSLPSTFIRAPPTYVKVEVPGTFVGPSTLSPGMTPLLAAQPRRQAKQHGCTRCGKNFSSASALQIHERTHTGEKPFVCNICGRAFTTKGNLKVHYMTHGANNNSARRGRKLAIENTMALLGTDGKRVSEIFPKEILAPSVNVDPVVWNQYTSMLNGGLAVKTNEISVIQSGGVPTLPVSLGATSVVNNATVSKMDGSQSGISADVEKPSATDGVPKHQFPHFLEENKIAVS
Setting: 8-mer, flanks averaged, mean of replicates
The E-score of `GCTGCCGA` is reported as -0.234.
With `ATTGTTTG` the E-score was 0.187.
The E-score of `CAACATTG` is reported as 0.184.
The E-score of `GCCGGAAA` is reported as -0.061.
`ATCGGCGG` gave an E-score of -0.189.
For `TCGGCAAA`, the E-score was -0.173.
With `CTATTTTA` the E-score was 0.291.
With `GGCTTTTA` the E-score was 0.0247.
The E-score of `ATGTCCGG` is reported as -0.158.
`CCGCCATA` has an E-score of 0.0962.
`TGAAGCCA` has an E-score of 0.077.
With `AGTGGACA` the E-score was 0.0176.
With `ACTTAATG` the E-score was 0.217.
For `AGCAACCA`, the E-score was 0.0482.
`GCTCATAC` has an E-score of 0.0504.
With `CAGAACTC` the E-score was -0.0966.
For `CGAGTTTC`, the E-score was -0.0109.
`CGCTATTC` has an E-score of 0.0891.

Set 2 — method: protein binding microarray; form: double-stranded DNA, one strand shown; matrix: in vitro; concentration: not given; reference: not given; reading: higher = stronger binding
Target: Histone acetyltransferase KAT6A, winged helix 1, GST fusion (KAT6A, Homo sapiens, UniProt Q92794, residues 1-85)
Setting: 8-mer, flanks averaged, mean of 2 arrays, mostly near background
Residues (chain): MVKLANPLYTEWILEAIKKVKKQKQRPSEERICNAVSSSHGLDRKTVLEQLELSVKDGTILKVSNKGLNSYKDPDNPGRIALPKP
`AGCTCAAG` has an E-score of -0.168.
`GTTGTTTA` has an E-score of -0.19.
The E-score of `GCTCTTCA` is reported as 0.00864.
`ACAACCCT` gave an E-score of -0.103.
For `CGTCCGGA`, the E-score was 0.0944.
`ATAAGGGG` gave an E-score of -0.0261.
With `CGTCGCTA` the E-score was 0.286.
`ACATGAGA` has an E-score of -0.0753.
`ATGGACAA` gave an E-score of -0.237.
The E-score of `CAACGCGC` is reported as 0.343.
The E-score of `ATGTCAAG` is reported as -0.158.
`CGAAGCAG` has an E-score of 0.055.
For `CCAGCGGA`, the E-score was 0.204.
With `GCAAGTCA` the E-score was -0.034.
`ACTAGATC` has an E-score of -0.197.
For `AGGCAAAC`, the E-score was -0.15.
The E-score of `CACACAAG` is reported as -0.275.
`ATAGTACA` gave an E-score of -0.0591.
`AGAGACCG` has an E-score of 0.0915.
`CGCCGGTA` gave an E-score of 0.437.
With `TAACCACA` the E-score was -0.121.
`AACCCTCA` has an E-score of -0.209.
The E-score of `AGTTCCCG` is reported as 0.313.
For `CGCGAATA`, the E-score was 0.204.
`CATGCCTC` has an E-score of 0.165.

Set 3 — method: DHFR PCA, deep sequencing; matrix: yeast; added: (+)-ABA 0.11 µM; reference: wild-type fitted maximum; reading: higher = stronger binding
Target: ABI1, truncated, D143A, DHFR fusion (Arabidopsis thaliana)
Setting: methotrexate growth selection, single substitutions
Starting sequence: PYL1, truncated, DHFR fusion (Arabidopsis thaliana); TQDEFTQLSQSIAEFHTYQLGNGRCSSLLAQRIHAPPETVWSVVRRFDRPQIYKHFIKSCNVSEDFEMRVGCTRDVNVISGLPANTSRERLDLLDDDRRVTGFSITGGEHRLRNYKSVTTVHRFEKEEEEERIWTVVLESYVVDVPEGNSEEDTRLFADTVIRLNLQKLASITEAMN
`S26K` — result for “relative binding score”: 0.0802%.
`N85A` — result for “relative binding score”: 58.2%.
`A84D`: “relative binding score” 26.5%.
For `V44A`, “relative binding score” read 0.587%.
`C25Q` — result for “relative binding score”: -9.79%.
For `V100E`, “relative binding score” read -6.49%.
`L169C` — result for “relative binding score”: 1.94%.
Under “relative binding score”, `N149Q` is recorded as 51%.
Under “relative binding score”, `A35C` is recorded as 6.24%.
For `E151S`, “relative binding score” read 28%.
`V100C` — result for “relative binding score”: 26.6%.
For `V78K`, “relative binding score” read 8.97%.
For `L93V`, “relative binding score” read 39.7%.
`E38N`: “relative binding score” 6.32%.
Under “relative binding score”, `R99L` is recorded as 58.3%.
Under “relative binding score”, `E128I` is recorded as 9.28%.
`A158P`: “relative binding score” -6.63%.
Under “relative binding score”, `Q7K` is recorded as 28.8%.
For `I162K`, “relative binding score” read 5.79%.
`N177F`: “relative binding score” 39.9%.
For `E131C`, “relative binding score” read 39.9%.
Under “relative binding score”, `E64P` is recorded as 52.6%.

Set 4 — method: RNA Bind-n-Seq; form: RNA; matrix: in vitro; concentration: not given; reference: input RNA pool; reading: higher = stronger binding
Target: RING finger protein unkempt homolog, zinc fingers 1-6, GST-SBP tag (UNK, Homo sapiens, UniProt Q9C0B0, residues 30-357)
Setting: RNA with constant flanks, human and mouse sites, ends assumed
Shared flanks, not repeated: GGGAGUUCUACAGUCCGACGAUC … CAACAGAGGAUUGAGCAUCA
Construct (chain): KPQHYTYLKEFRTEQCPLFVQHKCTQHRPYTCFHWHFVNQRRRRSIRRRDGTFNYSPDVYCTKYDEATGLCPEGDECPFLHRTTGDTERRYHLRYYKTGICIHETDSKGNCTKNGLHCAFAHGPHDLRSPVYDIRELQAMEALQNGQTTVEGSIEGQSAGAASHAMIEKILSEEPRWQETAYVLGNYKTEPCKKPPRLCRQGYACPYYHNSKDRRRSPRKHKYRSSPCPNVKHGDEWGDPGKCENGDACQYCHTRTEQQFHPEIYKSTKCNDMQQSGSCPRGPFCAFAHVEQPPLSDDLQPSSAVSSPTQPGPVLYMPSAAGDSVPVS
`GGAGUAUCAGUCCCGCGUCACUGCCGGGGGACCCUGCAGCUUCGGCUCAGGGUCUACGCCUGUCAUCGGGGGUAACACCUUCAAUCUCAAGGCCAGCCGUGGCAACGACCGUAAUCGCAU` gave a bound/input enrichment of 0.0649 ratio.
For `AGAUCUCAUAAAGAGAGCUCACGGUCCAGGUCAUCUCACAAAGAUUCUCCUAGAGAUGUUAGCAAAAAAGCCAAAAGAUCACCAUCUGGUUCAAGGACACCUAAAAGGUCUAGGCGAUCA`, the bound/input enrichment was 0.139 ratio.
For `UUGUGGGCGUUCUCGGGGAGCUGCUGCCGUAGCUGCCGCCGCCGCUACCACCGCGUUCGGGUGUAGAAUUUGGAAUCCCUGCGCCGCGUUAACAAUGAAGCAGAGUUCGAACGUGCCGGC`, the bound/input enrichment was 0.0592 ratio.
`UUCUCCUCAUUAUUUAAAAAUGCUAAACCUUGUAUCUCACUUUUUCUCUAACACUGAUUUAAUAGCUAACGAGGUAGAAGCAACAUUCAUUCUCCUGGUCUUACAUAUGAAUUUAAGUAU` gave a bound/input enrichment of 0.485 ratio.
For `GGGCAUAUACAGCUUAUAAUUCCUGGAGAAUCUGCUUGUUUUGCGUGUGCUCCACCACUUGUAGUUGCUGCAAAUAUUGAUGAAAAGACUCUGAAACGAGAAGGUGUUUGUGCAGCCAGU`, the bound/input enrichment was 0.363 ratio.
With `CGGAAACACAUCCAGGAUGAAAAGCUAGUCCGGUACUUCUUGGAUAAAACACUGACGUCAAGACUUGGGAUCCGAAUGCUGGCUACUCACCACUUGGCGCUACAUGAAGACAAGCCUGAU` the bound/input enrichment was 0.135 ratio.
`CUCCCACGUGCUUCCCCUUCUCCACUGGCUGGGAUCCCCCGGGCUCGGGGCGCAGUAAUAAUUUUUCACCAUGCAUCGGAAAAAGGUGGAUAACCGAAUCCGGAUUCUCAUUGAGAAUGG` has a bound/input enrichment of 0.324 ratio.
With `CCGCCGUGCAUGGGCUUCUUUUUGCACCCUGCUCACCCACCCAGUCUUUUGUAAUACUGUUUUCUAAACUUAUUUCUGAGUAUAAUCUCAGCUUGAAAUUGUAUAAUGCUAGAAUCAUGA` the bound/input enrichment was 0.322 ratio.
The bound/input enrichment of `AUAACAUAUUUGGGGGUGGGGUGGGGUGUUACUUUGUGUUCUUCCUCCUUAGCCUAUUUUCUUGUGCGUAUGGUCUGUGUGGGGCCCCUUUCACAGCUGACACCACGAAAGGUGAUAUAU` is reported as 2.05 ratio.
For `AAAAGAAAUUUCCAGCUAACAUUUUUAAAUCAUGAUGUUGUCAAAAUCUCUCCAAAAUCAGUUAGAAAUAAGCUUUUGGAAAGUCAAAGUAAAAAGAAAAUUCAUGGAAAGAGGGUGACA`, the bound/input enrichment was 1.56 ratio.
The bound/input enrichment of `AAACAAGCCUUUGAAAGAUGUCAUAGGCUCUCUGAUCCUUCUGACUUACCAAGGAAUGCCUUCAGAAUUUUUACCAUUCUUGUGGAAUUUUUAUGUAUUGAGCAUAUUGAUUAUGCUUUG` is reported as 0.0765 ratio.

Set 5 — method: RNA Bind-n-Seq; form: RNA; matrix: in vitro; concentration: 365 nM; reference: no-protein control; reading: higher = stronger binding
Target: RNA binding protein fox-1 homolog 2, RRM domain, GST-SBP tag (RBFOX2, Homo sapiens, UniProt O43251-10, residues 100-194)
Setting: natural RNA segment, single round, ends assumed
Shared flanks, not repeated: GGGAGUUCUACAGUCCGACGAUC … UGGAAUUCUCGGGUGCCAA
Residues (chain): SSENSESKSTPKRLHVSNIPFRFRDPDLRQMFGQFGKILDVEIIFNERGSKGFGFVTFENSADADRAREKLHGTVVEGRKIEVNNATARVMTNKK
`CAGGCAGGAGCCCACCCAUAGUUCUCUUCCCUAUGACGACUUCCCCAGAUAGCAUUAGCCACCCUGGGGGGCAGGGGGGGAAGAAUCCGGCUGUGGGGUAUCCACCUCGC` — result for “RBNS enrichment (R)”: 0.338.
Under “RBNS enrichment (R)”, `GAUAAAACUGAUUCUGACCCACACAGUUUGAUUCUAGAGCCUGUUCUGACUACUGUGCUAAGGUGUGUAUAAUGAACAUGGUAAUUCUAACCAGCUUUUUAAAAAUAUGU` is recorded as 0.576.
For `AUCUUAGUAUAUGUAUUGGAUUCCUGUACUUCCAAAGUCCUGGAAUAUAGUUUUUUUAGUAUAAUUCCACUGCACUUAACACUAAUGUUCAUGUUGGUAUAGAAAUGUCU`, “RBNS enrichment (R)” read 0.609.
For `AUAAGAAUUUGAGCAAGGCCAGUGACCACAGUGAAGUCUGAGACCCAUGUGUUGAAGUGCACGCCUCAUCUUUAGCAGCUGCCCCAAAGAGGCCAGAUCCUGGCAUUUUG`, “RBNS enrichment (R)” read 0.957.
`GAGUCCACAGGCAUUGCCUCUGACAGCUCCAGCGACUCUUCUAGCUCCUCUAGUUCCAGCUCGUCAGACUCGGACUCAGAGUGUGAAUCUGGGUCAGAAGGUGAUGGGAC` — result for “RBNS enrichment (R)”: 0.203.
`CUUGGCACAUGAAUGACAUUACACACUGAUGCCUGCCAACACACGCAUGGGGUAAGGGCUUUCAUCUCAGUAAUUCUCUUGUUCUAAGGAGAUCAGCUCCAACUAUGGUG` — result for “RBNS enrichment (R)”: 5.01.
`AAUUGCCAAUUGUUUUGCAGUACUUUAUUAUAUUGGGUGUCUUGUCUUUCUUGGGCUUUUAGUUAGCUGAUGAAUGAAUACAUUAGACACUUCUGGGUUUUAGUUGGGAU`: “RBNS enrichment (R)” 1.25.
`UCCUUGAGAGCCCCGCCCUGCGCCCGCGUGGUGCCUGCCUGCCAGGCCUGGGGCGUGCAGCCGGGGAGGCGGGUGGGGUGAGGCAGGCAGGCAGCCAGCCCCCUGCAGUG` — result for “RBNS enrichment (R)”: 0.747.
`UCUUGUGAGCAGAUGUACCUGAAGGAUUCUGCUGUUCCAUGAGGGUCUGGCUCUCAGGCUGUAGGCAGUGAUGGGGCAGCACAAGGCUGGAUAAAUCCCUUCCCUAUUGA` — result for “RBNS enrichment (R)”: 0.407.
`CCCCAACAUGGAUGUGUUGCCCCUCCUCCGCAUGCCAACGCAGUUCAUGUACAAGGCCCCUCUGCAACUGGAGAGAAAAUUAAUUCCUAUCCCGUGAGUGGAUUGUGAGA`: “RBNS enrichment (R)” 4.03.
Under “RBNS enrichment (R)”, `GUAGCCCUUUUGAUCAAAUUGGUCUUCACCUGCUUGCCUCUGAGGCUCCAUCCUUCUACUUCAACCCUCAGAGGAGCAGACAGGUGCAAAUAAACAACAGACUUUAUUAA` is recorded as 0.487.
`UGGUAGGAUAAAGCCAUUGUCCUUUAAUACCAUAGCAAAUAGAAGCAAUUUUUAAUGAGGUUACUGAAUUGUUUAGUAUUCCUAAUAUGGCAUCCAGGUCAUCUUUUCUU`: “RBNS enrichment (R)” 0.246.
